Assay results pooled from the literature.
Protocols differ between the studies behind these lines. Values joined by “and” are separate records of one study, mostly repeats; a detail may differ. ± gives the spread as reported.

| Structure (SMILES) | test | test system | setting | quantity | result |
| --- | --- | --- | --- | --- | --- |
| COc1cccc(Oc2ccccc2NC(=O)CNC(=O)c2cccc3ccccc23)c1 | – | esterase-deficient SCID mice, male | oral, 100 mg/kg/day, 14 days, toxicity study | serum globulin | 2.3 g/dL and 2.4 g/dL and 2.2 g/dL |
| C=CC(=O)N1CCC(c2ccc(C(N)=O)c(-c3ccc(Oc4ccccc4)cc3)n2)CC1 | CTCAE 4.03 | patients with relapsed/refractory MCL | oral, 100 mg twice daily | incidence of fatal serious TEAEs | 0% |
| COc1ncccc1-c1cnn2ccc(N3CCN(C(=O)OC(C)C)CC3)nc12 | – | rat, STZ model, brain | oral, 1 mg/kg, 240 min | drug concentration | 420 nM |
| O=S(=O)(Nc1ccccc1)c1ccc(NC(=S)Nc2ccccc2)cc1 | refers to: TBIL | male mouse, blood | oral, 5 mg/kg daily, 14 days | blood chemistry level | 0.65 mg/dL |
| CO[C@H]1C[C@@H]2CC[C@@H](C)[C@@](O)(O2)C(=O)C(=O)N2CCCC[C@H]2C(=O)O[C@H]([C@H](C)C[C@@H]2CC[C@@H](OC(=O)NCCOCCOCCOCCOCCOCCOCCOCCOCCC(=O)N3CCc4cc(Cn5nc(-c6ccc7oc(N)nc7c6)c6c(N)ncnc65)ccc4C3)[C@H](OC)C2)C[C@@H](O)[C@H](C)/C=C(\C)[C@@H](O)[C@@H](OC)C(=O)[C@H](C)C[C@H](C)/C=C/C=C/C=C/1C | – | patients with advanced solid tumours | intravenous, 1.6 mg/3 mg weekly, any grade | incidence of Headache TRAE | 0% |
| CC(C)N(CCc1c[nH]c2cccc(OC(=O)CCCC(=O)O)c12)C(C)C.Cl | – | male beagle dog, plasma | intravenous, 1 mg/kg | AUC(0-t) | 562 ng·h/mL |
| C[C@@H]1NC(=O)[C@H](CCCCNC(=O)CO/N=C/C(=O)NCCCC[C@@H]2NC(=O)[C@@H](Cc3ccccc3)NC(=O)[C@H](CC(=O)O)NC(=O)CNC(=O)[C@H](CCCNC(=N)N)NC2=O)NC(=O)CNC(=O)[C@@H]2CCCN2C(=O)[C@H](CCCCNC(=O)CO/N=C/C(=O)NCCCC[C@@H]2NC(=O)[C@@H](Cc3ccccc3)NC(=O)[C@H](CC(=O)O)NC(=O)CNC(=O)[C@H](CCCNC(=N)N)NC2=O)NC(=O)[C@H](CCCCNC(=O)[C@H](CCCCN)NC(=O)[C@H](Cc2ccccc2)NC(=O)CNC(=O)CN2CCCNCCNCCCNCC2)NC(=O)[C@H](CCCCNC(=O)CO/N=C/C(=O)NCCCC[C@@H]2NC(=O)[C@@H](Cc3ccccc3)NC(=O)[C@H](CC(=O)O)NC(=O)CNC(=O)[C@H](CCCNC(=N)N)NC2=O)NC(=O)CNC(=O)[C@@H]2CCCN2C(=O)[C@H](CCCCNC(=O)CO/N=C/C(=O)NCCCC[C@@H]2NC(=O)[C@@H](Cc3ccccc3)NC(=O)[C@H](CC(=O)O)NC(=O)CNC(=O)[C@H](CCCNC(=N)N)NC2=O)NC1=O [copper-64 labelled] | – | normal mice, lung | intravenous, 0.74 MBq, 3 h post-injection | tissue uptake | 9.38 ± 1.63 %ID/g |
| O=C1Nc2cc3[nH]nc(-c4ccncc4)c3cc2CN1Cc1ccccc1 | refers to: Dizziness | patients with advanced solid tumours | intravenous, dose not given, all schedules | patients with TEAE | 15% |
| Clc1ccc(-c2ccccc2)cc1 | – | rat Sprague-Dawley female, serum | inhalation, 23 µg/rat, 1 h | serum free thyroxine | 38 ± 4 pmol/L |
| O=c1nc(NO)ccn1[C@@H]1O[C@H](CO)[C@@H](O)[C@H]1O | – | rat amniotic fluid dialysate | 25 ng/mL, 6 h, 10 °C, low QC concentration, together with: molnupiravir | autosampler stability | 98.9 ± 3.13% |
| C[C@@H](NC(=O)N1C(=O)[C@H](Cc2ccnc(N)c2)[C@H]1C(=O)O)C1CCCCC1 | – | healthy adult Chinese volunteers | continuous intravenous infusion, 2.25 mg/kg/h, 5-day infusion, CTCAE 5.0 grading | incidence of abnormal liver function | 25% |
| C[C@]1(CO)Cc2ncn(-c3ccc(C#N)c(Cl)c3)c2C(=O)O1 | – | Japanese subjects | 3 mg single dose | drug-related adverse event incidence | 0% |
| COc1ccnc(C(=O)N[C@H]2COC(=O)[C@H](Cc3ccccc3)[C@@H](OC(=O)C(C)C)[C@H](C)OC2=O)c1OCOC(=O)C(C)C | – | germ | -18 °C | residue storage stability | 6 months |
| CC(C)CC(=O)OC[C@H]1O[C@@](C#N)(c2ccc3c(N)ncnn23)[C@H](O)[C@@H]1O | – | dog whole blood | 5 µM, 60 min | remaining compound | 24.5 ± 0.849% |
| CC(C)c1nc(N(C)S(C)(=O)=O)nc(-c2ccc(F)cc2)c1/C=C/[C@@H](O)C[C@@H](O)CC(=O)O | – | healthy human subjects | oral, dose not given, study CL-0537 safety set | incidence of skin disorders | 0% |
| C=CC(=O)N1CC[C@H](n2nc(C#Cc3cc(OC)cc(OC)c3)c3c(N)ncnc32)C1 | refers to: dry mouth | healthy adults | oral, grade ≥3, pooled treatments | TEAE incidence | 0% |
| NCCCC[C@@H]1NC(=O)[C@@H](Cc2c[nH]c3ccccc23)NC(=O)[C@H](c2ccccc2)NC(=O)[C@@H]2C[C@@H](OC(=O)NCCN)CN2C(=O)[C@H](Cc2ccccc2)NC(=O)[C@H](Cc2ccc(OCc3ccccc3)cc2)NC1=O | – | healthy volunteers | subcutaneous, 600 µg twice daily, day 5, 4.00 h | QTcI change from baseline | 6.1 ms |
| Cn1nccc1[C@]1(CNC(=O)c2ccc(F)c(F)c2-c2ccc(C(F)(F)F)cc2)NC(=O)NC1=O | – | rat | oral, 1.0 mg/kg | dose-normalised AUC | 3 kg·h/L |
| CC(C)[C@@H]1NC(=O)CNC(=O)[C@H](CC(N)=O)NC(=O)[C@H](CCCNC(=N)N)NC(=O)[C@H](Cc2ccc(O)cc2)NC(=O)[C@H](C(C)C)NC(=O)[C@@H](NC(=O)[C@@H](NC(=O)[C@H](CC(N)=O)NC(=O)[C@H](Cc2c[nH]c3ccccc23)NC(=O)[C@H](C)NC(=O)[C@H](Cc2ccccc2)NC(=O)CN)C(C)C)CSSC[C@@H](C(=O)N[C@@H](Cc2cnc[nH]2)C(=O)N[C@@H](CCCNC(=N)N)C(=O)N[C@@H](CCCNC(=N)N)C(=O)N[C@@H](C)C(=O)N[C@@H](CC(N)=O)C(N)=O)NC(=O)[C@H](C(C)C)NC(=O)[C@H](CCCNC(=N)N)NC1=O | HPLC | trypsin | 2560 µM, 0.50 h, together with: trypsin 1 % w/v | remaining peptide | 42.8% and 47.2% and 44.1% |
| CC(=O)c1c(C)c2cnc(Nc3ccc(C4CCN(CCS(C)(=O)=O)CC4)cn3)nc2n(C2CCCC2)c1=O | – | beagle dog, male, fasted, blood | oral gavage, 15 mg/kg, acidified methylcellulose vehicle | AUC(0-t) | 1120 ng·h/mL |
| Cc1c(C(=O)O)ccc2c3n(nc12)[C@@H]1[C@H](C3)N(CC2CC2)[C@@]2(C(=O)Nc3cc(Cl)ccc32)[C@H]1c1cccc(Cl)c1F | – | athymic nude mice, orthotopic brain tumour PDX, tumour | 2 mg/kg single, 24 h | tumour concentration | 29 ± 11 nM |
| CCN(CCO)CCCC(C)Nc1ccnc2cc(Cl)ccc12 (stereo not drawn) | refers to: Dyspnea grade 1 | newly diagnosed glioblastoma patients | oral, 400 mg/dose, with radiotherapy and temozolomide | patients with adverse event | 14% |
| CC1(C)C(C=C(Cl)Cl)C1C(=O)OC(C#N)c1ccc(F)c(Oc2ccccc2)c1 (stereo not drawn) | refers to: CYP2C9 | human, age 1 year, recombinant human CYP2C9 | 0.1 µM | enzyme contribution to clearance | 2.07% |
| CC(C)(O)c1cc(Nc2cc(Oc3cn(C4CC4)nc3C3CCOCC3)ccn2)ccn1 | Pyrexia | advanced cancer patients, dose escalation | oral, dose not given, 3 weeks on/1 off, all causality grade ≥3 | treatment-emergent adverse events | 0% |
| COc1cc2c(Oc3ccc4[nH]c(C)cc4c3F)ccnc2cc1OCC1(N)CC1 | – | paediatric recurrent refractory sarcoma | 10 mg | Hypertension incidence | 25% |
| CCC[C@@](N)(CO)CCc1ccc(OCCCCCC(C)C)cc1 | – | dog, male hounds, plasma | oral capsule, 15 mg/kg, median | half-life | 16.2 h |
| CN[C@@H](C)C(=O)N[C@H]1CN(S(=O)(=O)c2cccc(S(=O)(=O)N3CC[C@H]4CC[C@@H](C(=O)NC(c5ccccc5)c5ccccc5)N4C(=O)[C@@H](NC(=O)[C@H](C)NC)C3)c2)CC[C@H]2CC[C@@H](C(=O)NC(c3ccccc3)c3ccccc3)N2C1=O | – | patients with advanced solid tumours | 30 mg, phase I monotherapy | treatment-related ALT elevation incidence | 33.3% |

Repeated from above:
| Structure (SMILES) | test | test system | setting | quantity | result |
| --- | --- | --- | --- | --- | --- |
| Cn1nccc1[C@]1(CNC(=O)c2ccc(F)c(F)c2-c2ccc(C(F)(F)F)cc2)NC(=O)NC1=O | – | rat | oral, 1.0 mg/kg | dose-normalised AUC | 3 kg·h/L |
| CC(C)[C@@H]1NC(=O)CNC(=O)[C@H](CC(N)=O)NC(=O)[C@H](CCCNC(=N)N)NC(=O)[C@H](Cc2ccc(O)cc2)NC(=O)[C@H](C(C)C)NC(=O)[C@@H](NC(=O)[C@@H](NC(=O)[C@H](CC(N)=O)NC(=O)[C@H](Cc2c[nH]c3ccccc23)NC(=O)[C@H](C)NC(=O)[C@H](Cc2ccccc2)NC(=O)CN)C(C)C)CSSC[C@@H](C(=O)N[C@@H](Cc2cnc[nH]2)C(=O)N[C@@H](CCCNC(=N)N)C(=O)N[C@@H](CCCNC(=N)N)C(=O)N[C@@H](C)C(=O)N[C@@H](CC(N)=O)C(N)=O)NC(=O)[C@H](C(C)C)NC(=O)[C@H](CCCNC(=N)N)NC1=O | HPLC | trypsin | 2560 µM, 0.50 h, together with: trypsin 1 % w/v | remaining peptide | 42.8% and 47.2% and 44.1% |
| CC(=O)c1c(C)c2cnc(Nc3ccc(C4CCN(CCS(C)(=O)=O)CC4)cn3)nc2n(C2CCCC2)c1=O | – | beagle dog, male, fasted, blood | oral gavage, 15 mg/kg, acidified methylcellulose vehicle | AUC(0-t) | 1120 ng·h/mL |
